Measured values gathered from unrelated publications.
Numbered parts are unrelated; each lists some results of a single study.

Set 1 — technique: Sort-seq; item: YFP reporter; matrix: E. coli; notes: PhoQ-PhoP variant library; together with: 10 µM Mg2+; reference: high Mg2+ state; reading: higher = stronger signaling
Molecule: PhoQ, residues 284 288 289 292 302 303 SSTMSV
The fold induction was 13.7 (PhoP, residues 12 14 15 18 19 QYFSL (Escherichia coli, UniProt P23836)).
For PhoP, residues 12 14 15 18 19 NYFRM (Escherichia coli, UniProt P23836): fold induction read 13.9.
The fold induction was 3.25 (PhoP, residues 12 14 15 18 19 TQALL (Escherichia coli, UniProt P23836)).

Set 2 — technique: RNAcompete; form: RNA; matrix: in vitro; tested at: 20 nM; notes: 7-mer, probes averaged, single round; reference: mean of 7-mers; reading: higher = stronger binding
Target: PABPC1L2, full length, GST fusion (mouse, UniProt A0ABA7IW68)
Residues (chain): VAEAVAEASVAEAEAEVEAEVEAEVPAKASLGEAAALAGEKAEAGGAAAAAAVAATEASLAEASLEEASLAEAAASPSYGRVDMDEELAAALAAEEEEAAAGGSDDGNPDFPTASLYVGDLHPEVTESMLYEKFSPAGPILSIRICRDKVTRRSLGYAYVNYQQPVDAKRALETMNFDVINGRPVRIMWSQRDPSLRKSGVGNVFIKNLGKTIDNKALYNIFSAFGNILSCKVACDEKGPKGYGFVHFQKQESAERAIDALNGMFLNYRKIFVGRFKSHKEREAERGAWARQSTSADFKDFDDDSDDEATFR
`CGCGCCG` gave a 7-mer Z-score of -0.329.
`ACAAAAG` has a 7-mer Z-score of 2.49.
`UUACCUU` has a 7-mer Z-score of -0.331.
`AGCAUCA` has a 7-mer Z-score of 0.0152.
With `UUGCGGG` the 7-mer Z-score was 0.0388.
`UAGGCCU` has a 7-mer Z-score of -0.271.

Set 3 — technique: RNA Bind-n-Seq; form: RNA; matrix: in vitro; tested at: 20 nM; notes: 6-mer, flanks averaged, single round; together with: 150 mM LiCl; reference: input library; reading: higher = stronger binding
Target: TAR DNA-binding protein 43, full length, His tag (TARDBP, Homo sapiens, UniProt Q13148, residues 1-414)
`ACUUAU` — result for “6-mer enrichment (R)”: 0.947.
`CUAUGG` — result for “6-mer enrichment (R)”: 0.936.
Under “6-mer enrichment (R)”, `ACGACA` is recorded as 0.787.
`UUAAGU`: “6-mer enrichment (R)” 1.01.
`CUUGGG` — result for “6-mer enrichment (R)”: 1.1.
For `CUCGCU`, “6-mer enrichment (R)” read 0.835.
`ACGAUA` — result for “6-mer enrichment (R)”: 0.797.

Set 4 — technique: protein binding microarray; form: double-stranded DNA, one strand shown; matrix: in vitro; tested at: not given; reference: not given; reading: higher = stronger binding
Target: Histone acetyltransferase KAT6A, winged helix 2, GST fusion (KAT6A, Homo sapiens, UniProt Q92794, residues 85-181)
Notes: 8-mer, flanks averaged, mean of 2 arrays, mostly near background
Target sequence (chain): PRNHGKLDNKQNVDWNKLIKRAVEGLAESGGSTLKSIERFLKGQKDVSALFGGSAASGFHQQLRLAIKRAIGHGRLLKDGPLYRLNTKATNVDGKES
With `GTTAGAAA` the E-score was 0.0712.
With `CCAGACCG` the E-score was 0.173.
`CGTTCTCA` gave an E-score of -0.189.
`AAGTGTGG` has an E-score of -0.0174.
`AGGGCTGG` gave an E-score of 0.0946.
The E-score of `CGAGTGTC` is reported as 0.0267.
For `CTATATGA`, the E-score was 0.0381.

Excerpt of the above (set 4):
`AAGTGTGG` has an E-score of -0.0174.
`AGGGCTGG` gave an E-score of 0.0946.
The E-score of `CGAGTGTC` is reported as 0.0267.
